Results of several laboratories.
Every numbered part comes from another study and shows a few of its results, in no order. Substitutions count along the parent as printed.

Series 1 — technique: Sort-seq; refers to: YFP reporter; sample: E. coli; notes: PhoQ-PhoP variant library; added: 10 µM Mg2+; baseline: high Mg2+ state; reading: higher = stronger signaling
Substance: PhoQ, residues 284 288 289 292 302 303 SCEHLI
PhoP, residues 12 14 15 18 19 LHHYF (Escherichia coli, UniProt P23836) — fold induction: 13.2.
The fold induction was 8.96 (PhoP, residues 12 14 15 18 19 NFFVT (Escherichia coli, UniProt P23836)).
The fold induction was 14.7 (PhoP, residues 12 14 15 18 19 VGHWL (Escherichia coli, UniProt P23836)).

Series 2 — technique: DHFR PCA, deep sequencing; sample: yeast; added: (+)-ABA 1.4 µM; baseline: wild-type fitted maximum; reading: higher = stronger binding
Target: ABI1, truncated, D143A, DHFR fusion (Arabidopsis thaliana)
Notes: methotrexate growth selection, single substitutions
Starting sequence: PYL1, truncated, DHFR fusion (Arabidopsis thaliana); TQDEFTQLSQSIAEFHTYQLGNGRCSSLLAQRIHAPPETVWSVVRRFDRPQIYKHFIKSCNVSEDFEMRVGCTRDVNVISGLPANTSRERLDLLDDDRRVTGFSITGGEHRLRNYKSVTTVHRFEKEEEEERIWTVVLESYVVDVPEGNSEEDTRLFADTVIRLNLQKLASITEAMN
`L169I`: “relative binding score” -5.15%.
`I105L` — result for “relative binding score”: -3.22%.
`F15Y` — result for “relative binding score”: 62.5%.
Under “relative binding score”, `G21P` is recorded as 34.2%.
For `H122E`, “relative binding score” read 11.5%.
Under “relative binding score”, `S140C` is recorded as 7.71%.
For `E109Q`, “relative binding score” read 42.7%.
`T106Y`: “relative binding score” 45.5%.
Under “relative binding score”, `C60R` is recorded as 9%.
Under “relative binding score”, `R123W` is recorded as 11.1%.
For `D75A`, “relative binding score” read 33.8%.
`T101N`: “relative binding score” -1.86%.

Series 3 — technique: RNA Bind-n-Seq; form: RNA; sample: in vitro; concentration: 200 nM; notes: whole 134-nt RNA, ends assumed; added: 150 mM LiCl; baseline: input library; reading: higher = stronger binding; each molecule: 7-deaza-guanosine replaces G
Target: Fragile X messenger ribonucleoprotein 1, C-terminal low-complexity region (Fmr1, Mus musculus, UniProt P35922)
With `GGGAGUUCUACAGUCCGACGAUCGUCCUGUGCUACACAUCGUAUGUACCGAAUCGGGGCCCCCGGGGCCCCCGGGCCCCCGGAAAGUAUUAUGUUACGCCGUUCGGAUCUGCAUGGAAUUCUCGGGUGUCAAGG` the log2 enrichment was -0.631.
The log2 enrichment of `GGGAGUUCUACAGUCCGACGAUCAAGUCCUGUGCUACACAUCGUAUGUACCGAAUCGGGCCCCGGCCCCGGGCCCCGGGAAAGUAUUAUGUUACGCCGUUCGGAUCUGCACUUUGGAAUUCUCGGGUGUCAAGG` is reported as -3.2.
`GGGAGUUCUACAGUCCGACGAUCUAACUAUAGAGGAGGAUCUGAUGGAUAUGGCAGUGGACGUGGAUUUGGGGAUGGCUAUAAUGGGUAUGGAGGAGGACCUGGAGGUGGCAAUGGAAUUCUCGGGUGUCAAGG` gave a log2 enrichment of 0.177.
For `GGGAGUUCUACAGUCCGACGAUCCUGUGCUACACAUCGUAUGUACCGAAUCGGGGCCCCCCGGGGCCCCCCGGGCCCCCCGGGGAAAGUAUUAUGUUACGCCGUUCGGAUCUGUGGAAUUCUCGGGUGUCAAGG`, the log2 enrichment was -2.64.
`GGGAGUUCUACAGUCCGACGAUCACCAUUCAGGUGGGCAUCUUUGGGAAGUGGGGCAAGGGGGGGAUAGGGAGGGGGGUAACACUUUGGGAACAGGUGGUCCCAGGUCGUUUCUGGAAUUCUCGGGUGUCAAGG` gave a log2 enrichment of 1.32.
The log2 enrichment of `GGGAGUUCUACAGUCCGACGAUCUGGCCCAGGUGGCAUGCGGGGAGGAAGAGGUGGCCUCAUGGAUCGUGGUGGUCCCGGUGGAAUGUUCAGAGGUGGCCGUGGUGGAGACAGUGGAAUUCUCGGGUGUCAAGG` is reported as -0.235.
For `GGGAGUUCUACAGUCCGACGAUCUAACUUUAGAGGAGGAUCUGAUGGAUAUGGCAGUGGACGUGGAUUUGGGGAUGGCUAUAAUGGGUAUGGAGGAGGACCUGGAGGUGGCUAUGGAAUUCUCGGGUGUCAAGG`, the log2 enrichment was -0.0824.
With `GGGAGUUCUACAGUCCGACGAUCACCAUAAAGGUGGGCAUCUUUGGGAAGUGGGGCAAGGGGGGGAUAGGGAGGGGGGUAACACUUUGGGAACAGGUGGUCCCAGGUCGUUUCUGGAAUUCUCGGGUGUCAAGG` the log2 enrichment was 1.21.
For `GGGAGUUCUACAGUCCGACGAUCAAGUCCUGUGCUACACAUCGUAUGUACCGAAUCGGUUUUUUUGGAAAGGUUUUUGGAAAGUAUUAUGUUACGCCGUUCGGAUCUGCACUUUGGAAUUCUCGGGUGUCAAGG`, the log2 enrichment was -2.81.
For `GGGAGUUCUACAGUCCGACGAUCAGUCCUGUGCUACACAUCGUAUGUACCGAAUCGGGGAAAAAGGAAAAAGGAAAAAGGGAAAGUAUUAUGUUACGCCGUUCGGAUCUGCACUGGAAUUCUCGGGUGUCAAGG`, the log2 enrichment was -0.758.
For `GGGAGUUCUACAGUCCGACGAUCCCUGUGCUACACAUCGUAUGUACCGAAUCGGGGUUUGGGGUUUUUGGGGUUUUUUUGGGGAAAGUAUUAUGUUACGCCGUUCGGAUCUGCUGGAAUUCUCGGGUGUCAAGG`, the log2 enrichment was -0.386.

Series 4 — technique: RNA Bind-n-Seq; form: RNA; sample: in vitro; concentration: not given; baseline: input RNA pool; reading: higher = stronger binding
Target: RING finger protein unkempt homolog, zinc fingers 1-6, GST-SBP tag (UNK, Homo sapiens, UniProt Q9C0B0, residues 30-357)
Chain of UniProt Q9C0B0 (30-357, looked up): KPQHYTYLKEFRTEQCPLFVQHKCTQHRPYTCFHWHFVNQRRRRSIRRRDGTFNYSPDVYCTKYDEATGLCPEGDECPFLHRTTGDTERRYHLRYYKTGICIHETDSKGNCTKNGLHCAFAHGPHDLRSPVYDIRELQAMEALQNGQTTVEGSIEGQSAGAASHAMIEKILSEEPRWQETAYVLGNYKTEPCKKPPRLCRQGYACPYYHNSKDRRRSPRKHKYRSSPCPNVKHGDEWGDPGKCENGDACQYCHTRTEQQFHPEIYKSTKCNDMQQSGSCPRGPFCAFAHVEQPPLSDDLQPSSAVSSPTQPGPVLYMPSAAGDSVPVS
Notes: RNA with constant flanks, human and mouse sites, ends assumed
With `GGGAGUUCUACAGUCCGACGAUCUCUAUUGUAUGGAAACAGCUACUUCCCCUUGCUCCACUUACCUUCAAACUGCCAGCCACUUGGCUAUUAUUUGUUCUAUUUAGUACCUCCUGGGUUGGUUUUUAACCAUAAUUACAUUUCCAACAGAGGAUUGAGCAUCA` the bound/input enrichment was 0.493 ratio.
`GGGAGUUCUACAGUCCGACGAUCGAAAACGGCGAAAGGAGCGGAGGGGUGCCUCUGAUCAAGGCCCCCAAGAGAGAAACAGCAGAUGAAAAUGGUAAAACCCAGAGAGCUGAUGAUUUUGUCUUGAAGAAAAUAAAGAAGAAACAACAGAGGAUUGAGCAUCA` gave a bound/input enrichment of 0.25 ratio.
For `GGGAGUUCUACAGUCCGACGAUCCCUCCCACCAAGGGCCUCCGCAAGGAAGAGCGGCCCGGGCCAGGCCCUGGGGAGGUGCGCAUCGCCUUCCGCAUCUCCAACGGCCGGGAGCCCCGUGCACCAGACAGCGGCCUGCCCAGUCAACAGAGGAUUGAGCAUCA`, the bound/input enrichment was 0.143 ratio.
For `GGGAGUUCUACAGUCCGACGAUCUAACCACAUCAAGAUGGUUGGGAAGCUGAAGCAGAACUUACUCUUGGCGUGUCUGGUGAUUAGUUCUGUGACCGUGUUUUACCUGGGCCAGCAUGCCAUGGAGUGCCAUCACCGAAUAGACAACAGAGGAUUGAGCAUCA`, the bound/input enrichment was 0.282 ratio.
`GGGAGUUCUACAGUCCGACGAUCUAUCCAACUUUCUUUCCACGUUUUGAAUUCCAAGAUGUUAUCCCUCCAGAUGACUUUCUAACUAGUGAUGAAGAAGUAGAUUCCGUUUUAUUUGGAAGUUUGAGAGGUCAUGUGGUUGGACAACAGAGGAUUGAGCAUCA` gave a bound/input enrichment of 0.8 ratio.
`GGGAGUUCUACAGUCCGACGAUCCUUAAAAUUAAUUUUCAUGGUUCCAAGUCAUCAGAUUCUAGUGAAGUUCACAAGAGUAAAAUAGAAAUUAAUGUGUUAGAACCAGUUAUGUCACAGCUAUCAAAUUGCCAAGAUAAUUCUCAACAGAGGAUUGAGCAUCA` gave a bound/input enrichment of 1.57 ratio.
For `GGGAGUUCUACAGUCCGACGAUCUGGAACUGGGGAGGGGGCUUCCUGUUGGAGCCAGGGCCAGGGGCUCCUUGGUGUAAUCUGUGUCGCCAGGUUCCCACCUCUCUCCUUUUCUAAAAGCCAAAGCCACUAUCUCCAAUAAAACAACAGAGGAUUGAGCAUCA`, the bound/input enrichment was 0.17 ratio.
`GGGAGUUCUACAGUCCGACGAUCGAGGCCCCGGAACCCGAGCUGGAGCUGAAGCGCAGGCUGCGGGCGCGGAGUCGGGAGGCUGAGUGUUCAUUCCAGCAUGUCGGAAGGGGAGUCCCAAACAGUAGUCAGCAGUGGCUCAGACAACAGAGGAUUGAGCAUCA` has a bound/input enrichment of 0.162 ratio.
For `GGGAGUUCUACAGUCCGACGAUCAACACUAGACAAAAAAAAAUCAACUGUAUUUGUAAAAAUUUACCUCAAACCAUUUAAUUUUAUAGUGUGAUUGGUUAAUCCCAGGGCAUUUGGUAUGAACCAAAGUGCAUUCCUUUUUUUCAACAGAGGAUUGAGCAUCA`, the bound/input enrichment was 1.05 ratio.
For `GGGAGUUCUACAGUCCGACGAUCUACCACCAUGUACCCAGGCAUUGCUGACAGGAUGCAGAAGGAGAUUACUGCUCUGGCUCCUAGCACCAUGAAGAUCAAGAUCAUUGCUCCUCCUGAGCGCAAGUACUCUGUGUGGAUCGACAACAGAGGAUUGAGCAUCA`, the bound/input enrichment was 0.137 ratio.
With `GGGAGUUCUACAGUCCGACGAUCGCUGAAAAUGAAGAAGAGGCAGCUGAUGUCUGGUACAACCUGGGGCACAUAGCUGUGGGAAUCGGAGAUACAAACUUGGCCCACCAAUGCUUCAGGCUGGCCCUGGUCCACAACAACCACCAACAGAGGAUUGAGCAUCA` the bound/input enrichment was 0.13 ratio.

For quick reference, copied from above (series 2):
For `H122E`, “relative binding score” read 11.5%.
Under “relative binding score”, `S140C` is recorded as 7.71%.
`L169I`: “relative binding score” -5.15%.
Under “relative binding score”, `R123W` is recorded as 11.1%.
